Published values collected from several papers.
Compare with care: the assays were run in different laboratories. Numbers after ± are the reported error.
Melanocortin receptor 5: Melanocortin receptor 5 (Mus musculus, UniProt P41149)
Chain of UniProt P41149 (whole entry, looked up): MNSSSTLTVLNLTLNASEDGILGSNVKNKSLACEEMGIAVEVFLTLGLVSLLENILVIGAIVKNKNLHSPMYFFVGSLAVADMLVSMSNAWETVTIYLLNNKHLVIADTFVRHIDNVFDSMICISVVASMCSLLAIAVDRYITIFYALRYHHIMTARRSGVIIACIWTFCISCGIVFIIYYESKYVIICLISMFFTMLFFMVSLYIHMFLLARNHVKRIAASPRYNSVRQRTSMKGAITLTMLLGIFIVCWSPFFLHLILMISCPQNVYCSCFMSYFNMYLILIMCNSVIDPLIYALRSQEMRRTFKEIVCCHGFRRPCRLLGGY
Oprm1: Mu-type opioid receptor (Oprm1, Rattus norvegicus, UniProt P33535)
Chain of UniProt P33535 (whole entry, looked up): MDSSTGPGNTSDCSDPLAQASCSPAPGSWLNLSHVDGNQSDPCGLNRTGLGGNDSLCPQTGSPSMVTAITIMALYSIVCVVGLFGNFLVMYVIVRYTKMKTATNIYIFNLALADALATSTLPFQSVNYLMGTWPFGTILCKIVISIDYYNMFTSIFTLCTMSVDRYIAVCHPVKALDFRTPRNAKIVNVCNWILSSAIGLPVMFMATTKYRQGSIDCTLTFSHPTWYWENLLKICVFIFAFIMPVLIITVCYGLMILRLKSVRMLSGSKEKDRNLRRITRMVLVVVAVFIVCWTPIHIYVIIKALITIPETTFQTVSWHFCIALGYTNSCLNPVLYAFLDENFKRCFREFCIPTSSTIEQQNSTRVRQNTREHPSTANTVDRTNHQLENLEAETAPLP
lasR: Transcriptional activator protein LasR (lasR, Pseudomonas aeruginosa, UniProt P25084)
Chain of UniProt P25705 (whole entry, looked up): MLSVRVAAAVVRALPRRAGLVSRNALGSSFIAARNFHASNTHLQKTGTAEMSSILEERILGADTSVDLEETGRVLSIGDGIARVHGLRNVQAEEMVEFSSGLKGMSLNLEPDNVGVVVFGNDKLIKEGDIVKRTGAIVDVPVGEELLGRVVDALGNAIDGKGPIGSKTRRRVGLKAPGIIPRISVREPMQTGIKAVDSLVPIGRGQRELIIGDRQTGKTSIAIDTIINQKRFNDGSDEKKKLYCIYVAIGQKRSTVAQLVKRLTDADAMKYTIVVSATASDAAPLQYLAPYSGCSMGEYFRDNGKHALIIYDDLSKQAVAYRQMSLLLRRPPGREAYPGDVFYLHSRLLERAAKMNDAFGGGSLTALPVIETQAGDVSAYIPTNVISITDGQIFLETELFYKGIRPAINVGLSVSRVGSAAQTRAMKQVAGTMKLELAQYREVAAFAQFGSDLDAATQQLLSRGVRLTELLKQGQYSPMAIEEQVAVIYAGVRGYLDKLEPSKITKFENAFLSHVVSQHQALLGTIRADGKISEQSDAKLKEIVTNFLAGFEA
Chain of UniProt P06576 (whole entry, looked up): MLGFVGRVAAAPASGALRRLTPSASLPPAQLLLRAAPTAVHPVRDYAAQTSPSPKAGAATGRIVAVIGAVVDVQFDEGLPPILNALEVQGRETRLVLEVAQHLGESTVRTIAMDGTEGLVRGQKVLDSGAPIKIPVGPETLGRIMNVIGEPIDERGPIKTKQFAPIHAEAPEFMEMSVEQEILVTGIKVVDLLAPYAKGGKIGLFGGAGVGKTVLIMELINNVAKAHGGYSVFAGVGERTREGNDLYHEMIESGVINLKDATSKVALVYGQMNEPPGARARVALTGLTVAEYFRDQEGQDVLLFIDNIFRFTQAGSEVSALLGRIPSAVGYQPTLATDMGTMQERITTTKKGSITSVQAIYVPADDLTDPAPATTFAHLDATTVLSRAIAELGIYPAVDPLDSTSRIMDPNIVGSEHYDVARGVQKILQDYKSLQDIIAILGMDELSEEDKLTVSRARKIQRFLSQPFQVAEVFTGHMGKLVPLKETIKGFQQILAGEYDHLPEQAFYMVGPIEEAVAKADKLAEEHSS
Chain of UniProt P36542 (whole entry, looked up): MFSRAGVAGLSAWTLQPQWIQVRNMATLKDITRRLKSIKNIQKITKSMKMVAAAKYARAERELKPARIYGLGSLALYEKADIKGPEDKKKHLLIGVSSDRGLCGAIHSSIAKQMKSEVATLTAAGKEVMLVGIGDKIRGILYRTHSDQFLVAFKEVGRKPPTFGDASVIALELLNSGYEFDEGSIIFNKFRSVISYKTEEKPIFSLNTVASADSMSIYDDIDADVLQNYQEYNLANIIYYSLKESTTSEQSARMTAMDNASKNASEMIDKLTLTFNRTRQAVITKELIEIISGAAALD
Chain of UniProt Q62968 (whole entry, looked up): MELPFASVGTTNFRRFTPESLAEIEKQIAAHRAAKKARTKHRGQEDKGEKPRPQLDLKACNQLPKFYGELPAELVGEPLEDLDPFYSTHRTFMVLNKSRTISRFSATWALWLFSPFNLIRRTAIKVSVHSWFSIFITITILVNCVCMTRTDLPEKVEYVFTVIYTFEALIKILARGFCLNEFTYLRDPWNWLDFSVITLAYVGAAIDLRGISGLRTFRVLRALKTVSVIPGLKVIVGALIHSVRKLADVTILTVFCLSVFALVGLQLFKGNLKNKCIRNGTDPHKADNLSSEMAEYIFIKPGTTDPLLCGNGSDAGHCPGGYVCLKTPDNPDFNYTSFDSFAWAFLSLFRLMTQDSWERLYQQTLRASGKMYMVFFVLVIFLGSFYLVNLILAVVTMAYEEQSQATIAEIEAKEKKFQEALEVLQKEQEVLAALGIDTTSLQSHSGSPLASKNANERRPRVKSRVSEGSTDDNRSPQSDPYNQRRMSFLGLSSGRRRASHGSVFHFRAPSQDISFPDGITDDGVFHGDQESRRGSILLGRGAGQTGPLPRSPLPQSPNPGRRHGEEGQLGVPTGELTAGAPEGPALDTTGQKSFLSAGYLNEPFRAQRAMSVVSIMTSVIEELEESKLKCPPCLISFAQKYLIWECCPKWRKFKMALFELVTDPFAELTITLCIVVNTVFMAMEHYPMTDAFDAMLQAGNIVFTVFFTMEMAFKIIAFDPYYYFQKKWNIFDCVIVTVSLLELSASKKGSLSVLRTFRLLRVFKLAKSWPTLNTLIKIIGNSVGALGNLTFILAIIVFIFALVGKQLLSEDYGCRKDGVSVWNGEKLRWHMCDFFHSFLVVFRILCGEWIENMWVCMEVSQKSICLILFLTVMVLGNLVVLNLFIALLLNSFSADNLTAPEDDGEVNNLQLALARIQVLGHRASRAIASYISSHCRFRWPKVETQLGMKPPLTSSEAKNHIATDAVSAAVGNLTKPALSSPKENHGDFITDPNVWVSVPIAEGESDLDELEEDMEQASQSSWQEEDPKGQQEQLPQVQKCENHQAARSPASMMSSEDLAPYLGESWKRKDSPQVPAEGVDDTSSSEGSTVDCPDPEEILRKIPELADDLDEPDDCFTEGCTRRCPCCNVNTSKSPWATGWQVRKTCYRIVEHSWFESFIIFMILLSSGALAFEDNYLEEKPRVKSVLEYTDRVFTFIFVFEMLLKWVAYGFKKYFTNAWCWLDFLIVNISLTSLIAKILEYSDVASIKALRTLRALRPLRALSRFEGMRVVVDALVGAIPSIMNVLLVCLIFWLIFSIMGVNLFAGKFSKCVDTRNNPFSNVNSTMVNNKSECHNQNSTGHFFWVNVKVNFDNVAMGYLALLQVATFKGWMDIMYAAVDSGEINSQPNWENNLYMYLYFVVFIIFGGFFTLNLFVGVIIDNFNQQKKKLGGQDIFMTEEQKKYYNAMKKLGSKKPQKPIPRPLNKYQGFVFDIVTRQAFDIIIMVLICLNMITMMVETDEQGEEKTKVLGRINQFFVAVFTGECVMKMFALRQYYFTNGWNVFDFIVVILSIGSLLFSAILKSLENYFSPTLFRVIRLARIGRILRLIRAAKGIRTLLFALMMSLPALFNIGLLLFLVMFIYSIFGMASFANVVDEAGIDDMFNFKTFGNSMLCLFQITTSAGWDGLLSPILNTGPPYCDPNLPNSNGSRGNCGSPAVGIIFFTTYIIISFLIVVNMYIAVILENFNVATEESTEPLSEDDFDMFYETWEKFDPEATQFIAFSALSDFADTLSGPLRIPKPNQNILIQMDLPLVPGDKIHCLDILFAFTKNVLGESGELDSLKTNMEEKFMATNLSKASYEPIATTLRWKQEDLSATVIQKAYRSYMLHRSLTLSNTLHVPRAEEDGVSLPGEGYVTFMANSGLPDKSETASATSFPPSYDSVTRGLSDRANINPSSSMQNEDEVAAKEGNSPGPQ
Chain of UniProt P41595 (whole entry, looked up): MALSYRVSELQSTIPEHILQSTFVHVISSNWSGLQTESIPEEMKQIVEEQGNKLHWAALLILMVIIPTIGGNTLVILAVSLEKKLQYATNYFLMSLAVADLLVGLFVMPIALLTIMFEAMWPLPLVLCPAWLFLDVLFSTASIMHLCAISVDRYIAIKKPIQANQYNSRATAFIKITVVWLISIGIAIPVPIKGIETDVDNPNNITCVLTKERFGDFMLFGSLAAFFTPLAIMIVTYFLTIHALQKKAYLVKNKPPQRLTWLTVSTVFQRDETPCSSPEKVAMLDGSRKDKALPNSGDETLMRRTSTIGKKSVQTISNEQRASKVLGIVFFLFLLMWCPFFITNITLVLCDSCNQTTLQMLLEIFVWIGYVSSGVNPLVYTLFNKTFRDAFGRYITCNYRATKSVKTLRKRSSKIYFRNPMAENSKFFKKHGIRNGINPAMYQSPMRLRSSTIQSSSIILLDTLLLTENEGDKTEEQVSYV
Chain of UniProt P30969 (whole entry, looked up): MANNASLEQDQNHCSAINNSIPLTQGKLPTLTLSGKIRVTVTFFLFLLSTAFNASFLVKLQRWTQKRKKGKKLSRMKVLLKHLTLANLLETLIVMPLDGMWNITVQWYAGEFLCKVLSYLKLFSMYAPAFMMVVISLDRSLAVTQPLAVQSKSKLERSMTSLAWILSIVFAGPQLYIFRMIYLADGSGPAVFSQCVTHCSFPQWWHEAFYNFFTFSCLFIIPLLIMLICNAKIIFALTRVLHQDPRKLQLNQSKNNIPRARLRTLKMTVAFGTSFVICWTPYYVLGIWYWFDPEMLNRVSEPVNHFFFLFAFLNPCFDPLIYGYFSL

SMILES | target | assay | system | setting | EC50 [nM]
CC(C)C[C@H](NC(=O)[C@@H](CCCCN)NC(=O)[C@H](Cc1c[nH]cn1)NC(=O)[C@H](CO)NC(=O)[C@H](Cc1c[nH]c2ccccc12)NC(=O)[C@H](Cc1c[nH]cn1)NC(=O)[C@@H]1CCC(=O)N1)C(=O)N[C@@H](CCCNC(=N)N)C(=O)N1CCC[C@H]1C(=O)NCC(N)=O | Gonadotropin-releasing hormone receptor (Rattus norvegicus, UniProt P30969) | inositol phosphate accumulation, agonist | WPE-1-NB26-3 expressing Gonadotropin-releasing hormone receptor | 60 min, 37 °C, added: 10 mM LiCl | 6.2 ± 0.2
CC[C@H](C)[C@H](NC(=O)[C@H](CO)NC(=O)[C@H](Cc1ccc(O)cc1)NC(=O)[C@H](CC(=O)O)NC(=O)[C@H](CO)NC(=O)[C@@H](NC(=O)[C@H](Cc1ccccc1)NC(=O)[C@@H](NC(=O)CNC(=O)[C@@H]1CCCN1C(=O)[C@H](C)NC(=O)[C@@H](N)Cc1ccc(O)cc1)[C@@H](C)O)[C@@H](C)CC)C(=O)N[C@@H](C)C(=O)N[C@@H](CCSC)C(=O)N[C@@H](CC(=O)O)C(=O)N[C@@H](CCCCN)C(=O)N[C@H](C(=O)N[C@@H](CCCNC(=N)N)C(=O)N[C@@H](CCC(N)=O)C(=O)N[C@@H](CCC(N)=O)C(=O)N[C@@H](CC(=O)O)C(=O)N[C@@H](Cc1ccccc1)C(=O)N[C@H](C(=O)N[C@@H](CC(N)=O)C(=O)N[C@@H](Cc1c[nH]c2ccccc12)C(=O)N[C@@H](CC(C)C)C(=O)N[C@@H](CC(C)C)C(=O)N[C@@H](C)C(=O)N[C@@H](CCC(N)=O)C(=O)N[C@@H](CCCNC(=N)N)C(=O)NCC(=O)N[C@@H](CCCCN)C(=O)N[C@@H](CCCCN)C(=O)N[C@@H](CO)C(=O)N[C@@H](CC(=O)O)C(=O)N[C@@H](Cc1c[nH]c2ccccc12)C(=O)N[C@@H](CCCCN)C(=O)N[C@@H](Cc1c[nH]cn1)C(=O)N[C@@H](CC(N)=O)C(=O)N[C@H](C(=O)N[C@H](C(=O)N[C@@H](CCC(N)=O)C(=O)O)[C@@H](C)O)[C@@H](C)CC)C(C)C)[C@@H](C)CC | Gastric inhibitory polypeptide receptor (Rattus norvegicus, UniProt P43219) | cAMP, agonist |  |  | 15
C[C@@H]1NC(=O)[C@H](CC(N)=O)NC(=O)[C@H](Cc2c[nH]c3ccccc23)NC(=O)[C@H](CCCNC(=N)N)NC(=O)[C@@H](Cc2ccccc2)NC(=O)[C@H](Cc2c[nH]cn2)NC(=O)[C@@H](NC(=O)[C@@H](N)Cc2ccc(O)cc2)CCCn2nncc2-c2cccc(c2)-c2cnnn2CCC[C@@H](C(=O)N[C@@H](Cc2ccc(O)cc2)C(N)=O)NC(=O)[C@H](Cc2ccccc2)NC1=O | Melanocortin receptor 5 | agonist |  |  | 80 ± 26
Nc1ncnc2c1ncn2C1OC(COP(=O)(O)OP(=O)(O)OCC2OC(O)C(O)C2O)C(O)C1O (centres unmarked) | TRPM2 (Nematostella vectensis, UniProt A7T1N0, T307A) | channel activation, agonist, inside-out patch clamp |  | T307A, 2.5 µM PIP2, added: 125 µM Ca2+ | 31000 ± 2000
Cc1cc(O)cc(C)c1CC(N)C(=O)NC1CCNc2c(Br)cc(Cc3ccccc3)cc21 (centres unmarked) | Oprm1 | GTPγS binding, agonist, radiometric |  | cell membranes | 1.2
CC(=O)N[C@@H](Cc1ccc(O)cc1)C(=O)N[C@@H](CCCNC(=N)NC(=O)NCCCCN)C(=O)N[C@@H](CC(C)C)C(=O)N[C@@H](CCCNC(=N)N)C(=O)N[C@@H](Cc1ccc(O)cc1)C(N)=O | NPY4R (Homo sapiens, UniProt P50391) | β-arrestin 2 recruitment, agonist | HEK293T |  | 568 ± 120
Cc1cc(O)cc(C)c1CC(N)C(=O)NC1CCNc2c(Cc3ccccc3)cc(Cc3ccccc3)cc21 (centres unmarked) | Oprm1 | GTPγS binding, agonist, radiometric |  | cell membranes | 4
CCCCCCCCCC(=O)CC(=O)NC1CCCCC1=O (centres unmarked) | lasR | reporter gene, agonist | Escherichia coli, JLD271 with LasR plasmid |  | 240
CC(=O)N[C@@H](CCCNC(=N)N)C(=O)N[C@@H](CCCNC(=N)N)C(=O)N[C@H](Cc1ccc(I)cc1)C(=O)N[C@H](C(N)=O)[C@H](c1ccccc1)c1c[nH]c2ccccc12 | Melanocortin receptor 5 | cAMP, agonist, AlphaScreen |  |  | 240
CC[C@H](C)[C@H](NC(=O)[C@H](Cc1ccc(O)cc1)NC(=O)[C@@H]1CCCN1C(=O)[C@H](CCCNC(=N)N)NC(=O)[C@H](CCCNC(=N)N)NC(=O)[C@@H](NC(=O)[C@H](CCCCN)NC(=O)[C@H](CC(N)=O)NC(=O)[C@H](CCC(=O)O)NC(=O)[C@H](Cc1ccc(O)cc1)NC(=O)[C@H](CC(C)C)NC(=O)[C@@H]1CCC(=O)N1)[C@@H](C)O[C@H]1O[C@H](CO)[C@H](O)[C@H](O[C@@H]2O[C@H](CO)[C@H](O)[C@H](O)[C@H]2O)[C@H]1NC(C)=O)C(=O)N[C@@H](CC(C)C)C(=O)O | NTSR1 (Homo sapiens, UniProt P30989) | calcium signal, agonist, fluorescence |  |  | 0.9
Cc1cc(C2=CCN(CC3OCCO3)CC2)cc([N+](=O)[O-])c1N | HTR2B (Homo sapiens, UniProt P41595) | calcium signal, agonist |  |  | 9550
Cc1cc(O)cc(C)c1CC(N)C(=O)NC1CCNc2c1cc(Cc1ccccc1)cc2C(C)(C)C (centres unmarked) | Oprm1 | GTPγS binding, agonist, radiometric |  | cell membranes | 9.9
CS(=O)(=O)c1cccc(OCCCC(=O)NC2CC3CC3C2O)c1 (centres unmarked) | lasR (Pseudomonas aeruginosa, UniProt P25084, T75V) | reporter gene, agonist | Escherichia coli lasB-lux reporter |  | > 100000
CC(C)C[C@H](N)C(=O)N[C@@H](Cc1ccccc1)C(=O)N[C@H]1CSSC[C@@H](C(=O)N[C@@H](Cc2c[nH]c3ccccc23)C(=O)O)NC(=O)[C@H](CO)NC(=O)[C@H](CCCCN)NC(=O)[C@@H](Cc2c[nH]c3ccccc23)NC(=O)[C@H](Cc2ccccc2)NC1=O | SSTR2 (Homo sapiens, UniProt P30874) | β-arrestin recruitment, agonist |  |  | 2.6
CC(=O)N[C@@H](CCCNC(=N)N)C(=O)N[C@@H](CCCNC(=N)N)C(=O)N[C@H](C(=O)N1Cc2ccccc2C[C@H]1C(N)=O)[C@@H](c1ccccc1)c1c[nH]c2ccccc12 | Melanocortin receptor 5 | cAMP, agonist, AlphaScreen |  |  | > 100000
O=C(Nn1c(-c2cccc(Cl)c2)nc2ccccc2c1=O)c1ccccc1 | TRPM channel TRPM_PZQ (Schistosoma mansoni, UniProt A0A5K4F0X5) |  |  |  | 90 ± 20
O=C(CCCOc1cccc(Br)c1)N[C@H]1CCSC1=O | lasR | reporter gene, agonist | PAO-JP2 pump active |  | 4200
C[C@H](N)C(=O)N[C@@H](CCCNC(=N)N)C(=O)N[C@@H](Cc1ccc(O)cc1)C(=O)NCC(=O)N[C@@H](Cc1ccccc1)C(=O)N[C@@H](C)C(N)=O | Cholecystokinin-like receptor CKR-1 (Caenorhabditis elegans, UniProt P91487) | ion current, agonist, two-electrode voltage clamp | Caenorhabditis elegans, Xenopus laevis oocytes | pH 7.3, holding -80 mV | 13.6
CC(=O)N1CCCC[C@H]1C(=O)NC(C)(C)C(=O)N1CCCC[C@H]1C(=O)NC(C)(C)C(=O)NC(C)(C)C(=O)N[C@@H](CC(C)C)C(=O)N[C@@H](C)CC(=O)NCC(=O)NC(C)(C)C(=O)NC(C)(C)C(=O)N1CCCC[C@H]1C(=O)NC(C)(C)C(=O)NCC(=O)N[C@@H](CC(C)C)C(=O)NC(C)(C)C(=O)N[C@@H](CC(C)C)C[N+]1=C2CCCN2CCC1 | ATP5F1B/ATP5F1A/ATP synthase F(1) complex subunit gamma, mitochondrial (Homo sapiens, UniProt P06576+P25705+P36542) | ATP production, inhibitor | permeabilized MCF7 |  | 0.92 ± 0.17
CCN(Cc1ccccc1)C(=O)CCc1nc(CN2CCN(C(=O)Cc3ccc(OC)c(OC)c3)CC2)no1 | Scn10a (Rattus norvegicus, UniProt Q62968) | inactivation midpoint shift, whole-cell patch clamp | rat DRG neurons |  | 33.1 ± 10.8

For quick reference, copied from above:
SMILES | target | assay | system | setting | EC50 [nM]
Cc1cc(C2=CCN(CC3OCCO3)CC2)cc([N+](=O)[O-])c1N | HTR2B (Homo sapiens, UniProt P41595) | calcium signal, agonist |  |  | 9550
